Measured values collected from several papers.
Numbered parts are unrelated; each lists some results of a single study.
Chain of UniProt P50750 (whole entry, looked up): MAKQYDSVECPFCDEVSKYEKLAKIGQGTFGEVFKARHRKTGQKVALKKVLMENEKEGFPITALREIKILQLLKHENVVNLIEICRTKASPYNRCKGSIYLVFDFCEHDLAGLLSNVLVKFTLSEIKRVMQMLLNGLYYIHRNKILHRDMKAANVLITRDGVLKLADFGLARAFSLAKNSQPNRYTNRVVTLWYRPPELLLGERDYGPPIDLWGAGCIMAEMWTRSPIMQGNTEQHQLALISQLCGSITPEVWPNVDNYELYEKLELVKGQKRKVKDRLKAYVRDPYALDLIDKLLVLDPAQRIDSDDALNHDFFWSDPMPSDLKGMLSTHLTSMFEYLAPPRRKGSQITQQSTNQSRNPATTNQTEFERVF
Chain of UniProt Q02750 (whole entry, looked up): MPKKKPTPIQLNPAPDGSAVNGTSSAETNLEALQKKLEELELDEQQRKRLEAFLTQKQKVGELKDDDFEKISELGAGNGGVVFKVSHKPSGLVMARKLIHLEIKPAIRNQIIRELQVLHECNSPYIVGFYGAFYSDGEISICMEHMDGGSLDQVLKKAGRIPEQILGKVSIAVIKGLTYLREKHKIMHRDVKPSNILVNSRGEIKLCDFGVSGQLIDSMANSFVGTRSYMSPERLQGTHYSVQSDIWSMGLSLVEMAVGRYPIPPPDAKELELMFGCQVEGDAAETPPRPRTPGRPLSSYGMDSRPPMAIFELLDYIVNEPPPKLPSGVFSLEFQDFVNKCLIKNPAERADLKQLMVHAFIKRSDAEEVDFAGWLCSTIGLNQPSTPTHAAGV
Chain of UniProt Q13464 (whole entry, looked up): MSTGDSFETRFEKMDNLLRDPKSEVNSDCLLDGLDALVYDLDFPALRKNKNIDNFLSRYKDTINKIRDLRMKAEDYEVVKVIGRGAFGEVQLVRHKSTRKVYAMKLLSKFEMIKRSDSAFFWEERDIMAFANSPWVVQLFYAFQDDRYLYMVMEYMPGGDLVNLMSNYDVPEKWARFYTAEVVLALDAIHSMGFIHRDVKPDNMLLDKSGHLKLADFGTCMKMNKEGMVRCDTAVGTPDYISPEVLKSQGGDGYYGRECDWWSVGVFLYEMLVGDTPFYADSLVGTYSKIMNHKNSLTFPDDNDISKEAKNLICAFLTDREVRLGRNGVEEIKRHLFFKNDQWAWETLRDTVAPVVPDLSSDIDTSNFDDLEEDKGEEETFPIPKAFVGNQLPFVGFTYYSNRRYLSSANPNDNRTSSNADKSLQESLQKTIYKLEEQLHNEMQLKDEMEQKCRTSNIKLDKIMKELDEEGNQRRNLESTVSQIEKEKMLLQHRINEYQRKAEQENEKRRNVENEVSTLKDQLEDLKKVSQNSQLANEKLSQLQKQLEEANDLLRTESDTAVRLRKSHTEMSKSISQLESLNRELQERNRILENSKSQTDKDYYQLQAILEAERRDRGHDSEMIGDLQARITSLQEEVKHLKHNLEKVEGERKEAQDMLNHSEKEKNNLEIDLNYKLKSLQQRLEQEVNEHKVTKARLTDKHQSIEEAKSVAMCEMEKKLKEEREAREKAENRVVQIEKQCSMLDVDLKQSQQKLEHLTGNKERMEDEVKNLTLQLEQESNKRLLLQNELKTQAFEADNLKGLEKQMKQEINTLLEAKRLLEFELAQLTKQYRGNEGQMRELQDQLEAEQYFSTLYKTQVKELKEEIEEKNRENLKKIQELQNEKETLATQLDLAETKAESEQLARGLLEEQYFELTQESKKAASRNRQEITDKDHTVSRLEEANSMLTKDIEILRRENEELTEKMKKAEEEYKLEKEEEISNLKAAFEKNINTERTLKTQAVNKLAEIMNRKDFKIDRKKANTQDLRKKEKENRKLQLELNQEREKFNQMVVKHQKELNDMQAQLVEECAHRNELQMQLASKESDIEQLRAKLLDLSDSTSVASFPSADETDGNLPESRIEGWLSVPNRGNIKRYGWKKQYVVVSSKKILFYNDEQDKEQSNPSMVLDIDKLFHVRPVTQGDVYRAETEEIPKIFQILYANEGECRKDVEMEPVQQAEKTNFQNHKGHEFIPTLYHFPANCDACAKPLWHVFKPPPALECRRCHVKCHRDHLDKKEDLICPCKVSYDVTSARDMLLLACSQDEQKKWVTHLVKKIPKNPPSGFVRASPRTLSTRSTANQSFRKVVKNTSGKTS
Chain of UniProt O75676 (whole entry, looked up): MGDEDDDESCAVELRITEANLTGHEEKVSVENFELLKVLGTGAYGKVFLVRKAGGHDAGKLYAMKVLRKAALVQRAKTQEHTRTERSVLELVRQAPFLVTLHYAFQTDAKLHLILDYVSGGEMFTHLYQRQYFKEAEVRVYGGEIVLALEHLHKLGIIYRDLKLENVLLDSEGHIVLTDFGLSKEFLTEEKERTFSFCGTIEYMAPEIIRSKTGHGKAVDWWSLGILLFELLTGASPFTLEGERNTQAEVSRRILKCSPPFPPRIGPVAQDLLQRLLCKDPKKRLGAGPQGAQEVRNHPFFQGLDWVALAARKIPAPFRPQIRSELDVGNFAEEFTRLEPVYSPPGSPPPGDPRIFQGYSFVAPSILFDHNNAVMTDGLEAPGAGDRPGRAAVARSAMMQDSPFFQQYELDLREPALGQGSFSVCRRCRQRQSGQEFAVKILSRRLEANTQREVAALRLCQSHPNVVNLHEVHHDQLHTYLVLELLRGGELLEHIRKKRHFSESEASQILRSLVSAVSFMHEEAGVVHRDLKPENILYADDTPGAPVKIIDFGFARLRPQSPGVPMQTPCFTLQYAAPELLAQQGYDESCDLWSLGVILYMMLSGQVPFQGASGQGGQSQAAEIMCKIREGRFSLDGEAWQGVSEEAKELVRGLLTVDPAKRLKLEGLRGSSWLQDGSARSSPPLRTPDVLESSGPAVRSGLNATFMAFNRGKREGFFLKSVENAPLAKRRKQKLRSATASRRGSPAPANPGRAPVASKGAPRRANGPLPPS
Chain of UniProt Q16539 (whole entry, looked up): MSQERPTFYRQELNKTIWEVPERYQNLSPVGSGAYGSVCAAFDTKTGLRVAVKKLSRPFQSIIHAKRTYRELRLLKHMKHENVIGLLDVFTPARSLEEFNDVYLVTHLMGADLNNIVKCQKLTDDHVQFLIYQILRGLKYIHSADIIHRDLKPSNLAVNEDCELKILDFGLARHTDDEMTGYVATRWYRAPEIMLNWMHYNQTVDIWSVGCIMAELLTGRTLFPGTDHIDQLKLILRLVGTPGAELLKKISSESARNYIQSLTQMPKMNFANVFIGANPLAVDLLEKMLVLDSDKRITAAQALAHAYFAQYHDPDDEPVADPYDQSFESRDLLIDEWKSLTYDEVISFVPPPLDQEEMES
Chain of UniProt Q16832 (whole entry, looked up): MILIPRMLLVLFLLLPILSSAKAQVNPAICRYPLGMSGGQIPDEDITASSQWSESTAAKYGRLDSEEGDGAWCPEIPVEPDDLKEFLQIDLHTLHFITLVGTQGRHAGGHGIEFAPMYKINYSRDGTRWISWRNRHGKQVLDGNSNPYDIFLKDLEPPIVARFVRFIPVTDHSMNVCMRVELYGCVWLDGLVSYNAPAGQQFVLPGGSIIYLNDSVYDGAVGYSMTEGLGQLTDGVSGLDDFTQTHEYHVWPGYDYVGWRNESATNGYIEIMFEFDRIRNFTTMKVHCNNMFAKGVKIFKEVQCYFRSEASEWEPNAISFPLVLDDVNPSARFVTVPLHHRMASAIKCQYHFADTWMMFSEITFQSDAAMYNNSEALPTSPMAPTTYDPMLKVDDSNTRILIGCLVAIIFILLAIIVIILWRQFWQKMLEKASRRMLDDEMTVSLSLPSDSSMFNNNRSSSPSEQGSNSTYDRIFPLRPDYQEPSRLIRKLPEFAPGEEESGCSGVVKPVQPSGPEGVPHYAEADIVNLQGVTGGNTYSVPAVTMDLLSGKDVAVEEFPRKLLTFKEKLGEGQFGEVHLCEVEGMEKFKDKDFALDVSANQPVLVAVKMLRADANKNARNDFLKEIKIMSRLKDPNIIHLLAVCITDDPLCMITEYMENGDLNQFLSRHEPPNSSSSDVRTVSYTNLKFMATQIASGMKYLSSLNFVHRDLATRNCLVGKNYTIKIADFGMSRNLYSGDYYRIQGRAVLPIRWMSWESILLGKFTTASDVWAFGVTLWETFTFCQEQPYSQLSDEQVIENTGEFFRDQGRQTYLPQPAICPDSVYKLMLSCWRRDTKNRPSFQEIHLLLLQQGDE
Chain of UniProt Q15759 (whole entry, looked up): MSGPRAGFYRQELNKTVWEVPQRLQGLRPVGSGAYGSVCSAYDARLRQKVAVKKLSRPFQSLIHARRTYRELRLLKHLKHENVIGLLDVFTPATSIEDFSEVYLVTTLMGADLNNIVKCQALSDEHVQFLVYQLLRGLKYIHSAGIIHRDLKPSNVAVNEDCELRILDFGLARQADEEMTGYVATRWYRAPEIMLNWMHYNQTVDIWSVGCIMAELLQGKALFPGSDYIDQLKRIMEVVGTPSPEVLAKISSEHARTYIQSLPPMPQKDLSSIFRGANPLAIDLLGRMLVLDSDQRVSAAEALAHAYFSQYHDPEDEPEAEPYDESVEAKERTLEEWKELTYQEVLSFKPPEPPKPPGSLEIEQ

Series 1 — species: human; medium: microsomes or S9; concentration: 2 µM; time: 0.5 h
Compound | remaining compound
C=CCO/N=C/c1cn(CC=C)c2ccc(OC)cc12 | 68.8%
CCCc1nc(-c2ccc3ccccc3c2)cc2ccsc12 | 87%
CN(C)CCN(Cc1ccccc1)C(=O)C(C(=O)c1ccc(F)cc1)n1ccccc1=O (stereo not drawn) | 28.5%
CCOC(=O)c1ccc(NC(=O)c2ccc(-n3nncc3C)cc2)cc1 | 5.48%
COC(=O)CC(c1cc(OC)c(O)c(OC)c1)c1c(O)n2ccccc2nc1=O (stereo not drawn) | 46.5%
COc1ccc(C2C(C(=O)Nc3ccccc3OC)CCC(=O)N2c2ccc3c(c2)OCO3)cc1 (stereo not drawn) | 91.6%

Series 2 — organism: Plasmodium berghei; mode: inhibitor; cell line: Huh-7; strain: GFP-expressing sporozoites, liver stage; concentration: 10 µM; time: 24 h; reference: untreated control
SMILES | infection rate [%]
COc1cc2nc(N3CCN(C(=O)C4COc5ccccc5O4)CC3)nc(N)c2cc1OC (stereo not drawn) | 57.2
COc1cc(C(=O)NCCCCCC(=O)O)cc(OC)c1OC | 85.9
Nc1ncnc2c1ncn2[C@@H]1O[C@H](CO)[C@@H](O)[C@H]1O | 96
CCOC(=O)[C@H](CCc1ccccc1)N[C@@H](C)C(=O)N1CCC[C@H]1C(=O)O | 91.4
CC(=O)c1ccc(S(=O)(=O)NC(=O)NC2CCCCC2)cc1 | 85.1
CC(N)C(=O)OC(C)(C)Cc1ccc(Cl)cc1 (stereo not drawn) | 103
NS(=O)(=O)c1cc2c(cc1Cl)N=C(CSCc1ccccc1)NS2(=O)=O | 92.9
Nc1c2ccccc2nc2ccccc12 | 16.6
CCC(=O)OCC(=O)[C@@]1(OC(=O)CC)[C@@H](C)C[C@H]2[C@@H]3CCC4=CC(=O)C=C[C@]4(C)[C@@]3(F)[C@@H](O)C[C@@]21C | 85.1
O=C(Oc1cccc2cccnc12)c1ccccc1 | 15.6

Series 3 — effect on: ligand displacement; concentration: 10 µM
Target: Histamine H2 receptor (HRH2, Homo sapiens, UniProt P25021)
Chain of UniProt P25021 (whole entry, looked up): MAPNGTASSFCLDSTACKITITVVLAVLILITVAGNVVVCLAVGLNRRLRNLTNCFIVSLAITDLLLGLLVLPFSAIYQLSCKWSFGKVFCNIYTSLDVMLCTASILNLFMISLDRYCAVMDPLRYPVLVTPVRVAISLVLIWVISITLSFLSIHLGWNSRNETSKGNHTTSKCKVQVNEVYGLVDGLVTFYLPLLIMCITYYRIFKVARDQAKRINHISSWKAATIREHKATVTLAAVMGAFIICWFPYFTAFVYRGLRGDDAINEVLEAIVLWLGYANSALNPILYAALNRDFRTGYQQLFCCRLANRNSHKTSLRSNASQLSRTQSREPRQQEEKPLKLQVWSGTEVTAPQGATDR
Compound | inhibition [%]
C[C@@H]1CN(c2cc(-c3n[nH]c4ccc(OC5(C)CC5)cc34)ncn2)C[C@H](C)O1 | 6.26
CN(C)CC#Cc1ccc(OCCCc2sc(N3CCc4cccc(C(=O)Nc5nc6ccccc6s5)c4C3)nc2C(=O)O)c(F)c1 | 23.2
C[C@H](c1ccnc(Nc2nc3ccc(-c4cc(N(C)C)ncn4)cc3[nH]2)c1)N1CCN(C(=O)CC(F)(F)F)CC1 | 3.55
CN(C)c1ncnc(-c2ccc3nc(Nc4cc(CN5CCN(C(=O)CC(F)(F)F)CC5)ccn4)[nH]c3c2)c1Cl | 32.6
Nc1nc(NCc2ccccc2)nc(-c2ccccc2CO)n1 | -17.6
N#CC1(c2ccccn2)CCN(Cc2cc(C(=O)N3CCCC3)c(=O)n3ccccc23)CC1 | 3.1
Nc1cnc(N2CCc3cc(S(=O)(=O)Nc4c(F)cc(Cl)cc4F)cc(N4CCCC4=O)c32)nc1 | 8.19
CO[C@H]1CC[C@H](CNc2ccc(S(=O)(=O)NC(=O)c3ccc(N4CCN(CC5=C(c6ccc(Cl)cc6)CC(C)(C)CC5)CC4)cc3Oc3cnc4[nH]ccc4c3)cc2[N+](=O)[O-])CC1 | 13.6
CCOc1ccc(S(=O)(=O)Nc2ccc(Cl)cc2C#Cc2cnc(C(=O)O)cc2OC)c2ncccc12 | 24.2

Series 4 — SMILES: O=C1c2ccccc2-c2nc3nnnn3nc21; effect on: enzyme activity; mode: inhibitor; concentration: 0.5 µM; reference: control
target | remaining activity
Cyclin-dependent kinase 1, with cyclin A (CDK1, Homo sapiens, UniProt P06493) | 48.9%
MAP2K1 (Homo sapiens, UniProt Q02750) | 88.7%
MAPK11 (Homo sapiens, UniProt Q15759) | 101%
ROCK1 (Homo sapiens, UniProt Q13464) | 94.5%
PNCK (Homo sapiens, UniProt Q6P2M8) | 83.4%
MAPK14 (Homo sapiens, UniProt Q16539) | 88.6%
TXK (Homo sapiens, UniProt P42681) | 90.8%
DCLK2 (Homo sapiens, UniProt Q8N568) | 86.5%
RPS6KA4 (Homo sapiens, UniProt O75676) | 72.2%
Cyclin-dependent kinase 9, with cyclin K (CDK9, Homo sapiens, UniProt P50750) | 74.4%
DDR2 (Homo sapiens, UniProt Q16832) | 58.7%
CLK4 (Homo sapiens, UniProt Q9HAZ1) | 78.3%
MARK2 (Homo sapiens, UniProt Q7KZI7) | 94.2%
NEK3 (Homo sapiens, UniProt P51956) | 111%

Repeated from above (series 2):
SMILES | infection rate [%]
O=C(Oc1cccc2cccnc12)c1ccccc1 | 15.6
CC(N)C(=O)OC(C)(C)Cc1ccc(Cl)cc1 (stereo not drawn) | 103
CCOC(=O)[C@H](CCc1ccccc1)N[C@@H](C)C(=O)N1CCC[C@H]1C(=O)O | 91.4
Nc1c2ccccc2nc2ccccc12 | 16.6
Nc1ncnc2c1ncn2[C@@H]1O[C@H](CO)[C@@H](O)[C@H]1O | 96
